# Results from different studies.
# Lines come from different studies, so protocols differ. Values joined by “and” are separate records of one study, mostly repeats; a detail may differ. ± gives the spread as reported.
# Histone acetyltransferase RTT109 with Vps75: Histone acetyltransferase RTT109, with Vps75 (Saccharomyces cerevisiae, UniProt Q07794)
# UniProt Q07794, sequence (whole entry, looked up): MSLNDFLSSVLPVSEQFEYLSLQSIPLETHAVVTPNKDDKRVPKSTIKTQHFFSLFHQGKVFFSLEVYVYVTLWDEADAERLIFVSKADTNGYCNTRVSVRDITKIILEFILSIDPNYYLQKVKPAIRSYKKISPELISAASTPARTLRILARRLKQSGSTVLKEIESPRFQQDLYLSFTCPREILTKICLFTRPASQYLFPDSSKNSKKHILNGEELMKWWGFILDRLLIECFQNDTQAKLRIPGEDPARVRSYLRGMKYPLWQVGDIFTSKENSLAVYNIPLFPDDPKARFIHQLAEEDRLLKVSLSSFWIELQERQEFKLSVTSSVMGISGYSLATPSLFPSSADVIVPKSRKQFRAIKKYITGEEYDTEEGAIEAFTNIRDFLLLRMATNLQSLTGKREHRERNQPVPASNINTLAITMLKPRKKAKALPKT
# serine/threonine phosphatase Stp1: serine/threonine phosphatase Stp1 (Staphylococcus aureus, UniProt A0A0H2XF73)
# SIRT2: NAD-dependent protein deacetylase sirtuin-2 (SIRT2, Homo sapiens, UniProt Q8IXJ6)
# UniProt Q8IXJ6, sequence (whole entry, looked up): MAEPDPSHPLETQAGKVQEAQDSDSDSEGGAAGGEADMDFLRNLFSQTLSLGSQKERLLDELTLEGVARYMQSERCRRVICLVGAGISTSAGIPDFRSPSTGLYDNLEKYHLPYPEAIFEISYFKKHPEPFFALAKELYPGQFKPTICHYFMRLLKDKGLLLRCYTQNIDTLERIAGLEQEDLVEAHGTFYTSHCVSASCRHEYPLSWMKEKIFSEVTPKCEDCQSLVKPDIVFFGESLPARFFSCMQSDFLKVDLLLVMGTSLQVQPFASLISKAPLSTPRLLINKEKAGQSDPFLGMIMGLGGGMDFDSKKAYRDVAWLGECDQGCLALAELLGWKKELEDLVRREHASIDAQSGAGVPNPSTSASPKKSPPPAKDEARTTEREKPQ
# BRD4 BD2: Bromodomain-containing protein 4, BD2 (BRD4, Homo sapiens, UniProt O60885)
# UCHL1: Ubiquitin carboxyl-terminal hydrolase isozyme L1 (UCHL1, Homo sapiens, UniProt P09936)
# UniProt P09936, sequence (whole entry, looked up): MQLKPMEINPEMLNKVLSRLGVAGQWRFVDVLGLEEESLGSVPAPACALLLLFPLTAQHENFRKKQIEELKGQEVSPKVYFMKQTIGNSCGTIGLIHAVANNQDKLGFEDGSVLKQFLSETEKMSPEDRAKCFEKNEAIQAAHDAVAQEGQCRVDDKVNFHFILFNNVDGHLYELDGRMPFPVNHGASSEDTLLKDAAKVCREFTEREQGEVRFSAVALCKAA
# BRD4 BD1: Bromodomain-containing protein 4, BD1 (BRD4, Homo sapiens, UniProt O60885)
# UniProt Q9WVG6, sequence (whole entry, looked up): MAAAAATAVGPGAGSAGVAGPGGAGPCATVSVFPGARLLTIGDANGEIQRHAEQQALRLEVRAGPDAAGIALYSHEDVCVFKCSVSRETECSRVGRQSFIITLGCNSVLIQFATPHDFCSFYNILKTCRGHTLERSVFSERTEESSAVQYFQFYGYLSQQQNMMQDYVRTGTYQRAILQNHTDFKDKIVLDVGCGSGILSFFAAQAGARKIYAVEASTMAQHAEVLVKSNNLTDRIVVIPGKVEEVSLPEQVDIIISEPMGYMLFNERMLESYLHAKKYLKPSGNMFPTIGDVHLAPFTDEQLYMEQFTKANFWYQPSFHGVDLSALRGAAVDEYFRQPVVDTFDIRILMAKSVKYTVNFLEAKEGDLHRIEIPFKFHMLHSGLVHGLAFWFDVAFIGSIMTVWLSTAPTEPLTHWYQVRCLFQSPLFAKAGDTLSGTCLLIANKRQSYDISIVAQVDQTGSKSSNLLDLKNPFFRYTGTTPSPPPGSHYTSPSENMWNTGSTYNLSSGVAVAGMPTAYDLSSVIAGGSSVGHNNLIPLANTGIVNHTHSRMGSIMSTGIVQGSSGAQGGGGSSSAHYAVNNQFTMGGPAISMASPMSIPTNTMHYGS
# UniProt P10632, sequence (whole entry, looked up): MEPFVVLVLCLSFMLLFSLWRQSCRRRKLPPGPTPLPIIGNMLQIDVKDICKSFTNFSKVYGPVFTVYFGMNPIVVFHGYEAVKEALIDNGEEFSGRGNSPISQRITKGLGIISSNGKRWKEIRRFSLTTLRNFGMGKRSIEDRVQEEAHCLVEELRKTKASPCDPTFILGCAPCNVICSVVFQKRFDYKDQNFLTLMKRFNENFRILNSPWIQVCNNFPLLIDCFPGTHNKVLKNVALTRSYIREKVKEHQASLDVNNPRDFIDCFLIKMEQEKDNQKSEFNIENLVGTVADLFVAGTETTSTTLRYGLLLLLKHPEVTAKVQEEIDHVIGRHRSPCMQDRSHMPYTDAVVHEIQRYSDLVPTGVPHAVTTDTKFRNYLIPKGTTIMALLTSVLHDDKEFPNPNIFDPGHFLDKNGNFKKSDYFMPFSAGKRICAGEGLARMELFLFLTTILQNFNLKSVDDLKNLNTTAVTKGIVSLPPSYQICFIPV
# UniProt P35222, sequence (whole entry, looked up): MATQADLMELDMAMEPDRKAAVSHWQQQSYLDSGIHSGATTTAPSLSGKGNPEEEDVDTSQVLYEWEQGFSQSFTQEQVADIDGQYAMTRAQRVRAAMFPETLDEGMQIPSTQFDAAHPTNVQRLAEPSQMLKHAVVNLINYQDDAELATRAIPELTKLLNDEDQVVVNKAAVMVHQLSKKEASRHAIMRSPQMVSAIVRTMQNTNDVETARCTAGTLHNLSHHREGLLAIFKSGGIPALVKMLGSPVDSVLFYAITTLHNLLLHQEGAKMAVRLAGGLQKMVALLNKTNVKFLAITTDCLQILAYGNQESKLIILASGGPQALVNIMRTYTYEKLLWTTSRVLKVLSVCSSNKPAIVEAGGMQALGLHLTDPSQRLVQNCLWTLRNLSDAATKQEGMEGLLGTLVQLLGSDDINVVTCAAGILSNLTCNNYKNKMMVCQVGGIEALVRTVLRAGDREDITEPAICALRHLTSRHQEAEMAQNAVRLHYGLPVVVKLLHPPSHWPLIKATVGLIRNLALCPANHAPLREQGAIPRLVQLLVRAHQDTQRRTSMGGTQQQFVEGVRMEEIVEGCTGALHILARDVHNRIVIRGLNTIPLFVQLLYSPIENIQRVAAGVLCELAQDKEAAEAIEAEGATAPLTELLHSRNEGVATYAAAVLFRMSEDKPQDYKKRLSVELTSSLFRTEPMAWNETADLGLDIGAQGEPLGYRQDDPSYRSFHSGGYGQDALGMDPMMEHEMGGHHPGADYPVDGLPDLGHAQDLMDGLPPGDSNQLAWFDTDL
# UniProt Q9SCZ4, sequence (whole entry, looked up): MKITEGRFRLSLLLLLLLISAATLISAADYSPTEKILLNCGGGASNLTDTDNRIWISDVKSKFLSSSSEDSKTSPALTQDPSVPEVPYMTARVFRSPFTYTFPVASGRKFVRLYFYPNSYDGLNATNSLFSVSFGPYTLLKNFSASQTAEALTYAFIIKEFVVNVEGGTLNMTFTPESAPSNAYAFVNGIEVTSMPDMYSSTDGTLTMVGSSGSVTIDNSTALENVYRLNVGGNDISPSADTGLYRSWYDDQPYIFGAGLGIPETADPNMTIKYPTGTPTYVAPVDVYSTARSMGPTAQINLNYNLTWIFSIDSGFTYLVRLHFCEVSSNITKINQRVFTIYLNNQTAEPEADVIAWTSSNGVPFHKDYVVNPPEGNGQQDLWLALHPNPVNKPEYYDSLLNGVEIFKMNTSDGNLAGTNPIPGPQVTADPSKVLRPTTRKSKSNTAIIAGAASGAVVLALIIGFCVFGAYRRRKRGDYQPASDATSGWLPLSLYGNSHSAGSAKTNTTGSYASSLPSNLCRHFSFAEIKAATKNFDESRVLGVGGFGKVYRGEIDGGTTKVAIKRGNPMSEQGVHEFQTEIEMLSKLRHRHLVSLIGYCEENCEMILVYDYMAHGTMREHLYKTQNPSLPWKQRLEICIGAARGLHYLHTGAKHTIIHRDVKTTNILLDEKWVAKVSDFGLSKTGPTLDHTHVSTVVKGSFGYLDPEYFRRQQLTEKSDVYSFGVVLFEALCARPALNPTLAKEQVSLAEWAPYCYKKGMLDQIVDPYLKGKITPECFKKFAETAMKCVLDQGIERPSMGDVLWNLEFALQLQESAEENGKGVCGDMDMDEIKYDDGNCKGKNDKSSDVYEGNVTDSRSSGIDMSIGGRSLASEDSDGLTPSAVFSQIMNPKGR
# UniProt P97612, sequence (whole entry, looked up): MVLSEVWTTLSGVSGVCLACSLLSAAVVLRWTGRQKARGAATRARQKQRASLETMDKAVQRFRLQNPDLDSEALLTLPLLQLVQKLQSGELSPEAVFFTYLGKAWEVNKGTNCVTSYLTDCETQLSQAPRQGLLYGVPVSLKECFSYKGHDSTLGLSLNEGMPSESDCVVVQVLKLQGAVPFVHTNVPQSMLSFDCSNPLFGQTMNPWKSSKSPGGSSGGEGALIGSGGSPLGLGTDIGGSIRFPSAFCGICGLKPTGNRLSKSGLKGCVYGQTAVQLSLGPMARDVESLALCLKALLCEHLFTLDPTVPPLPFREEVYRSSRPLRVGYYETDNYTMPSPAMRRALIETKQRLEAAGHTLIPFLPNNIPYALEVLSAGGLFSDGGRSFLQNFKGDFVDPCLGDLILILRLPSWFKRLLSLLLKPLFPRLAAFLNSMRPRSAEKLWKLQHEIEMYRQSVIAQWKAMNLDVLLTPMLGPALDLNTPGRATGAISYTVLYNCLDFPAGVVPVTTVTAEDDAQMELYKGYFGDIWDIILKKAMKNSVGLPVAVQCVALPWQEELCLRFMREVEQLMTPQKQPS
# UniProt P0DUB6, sequence (whole entry, looked up): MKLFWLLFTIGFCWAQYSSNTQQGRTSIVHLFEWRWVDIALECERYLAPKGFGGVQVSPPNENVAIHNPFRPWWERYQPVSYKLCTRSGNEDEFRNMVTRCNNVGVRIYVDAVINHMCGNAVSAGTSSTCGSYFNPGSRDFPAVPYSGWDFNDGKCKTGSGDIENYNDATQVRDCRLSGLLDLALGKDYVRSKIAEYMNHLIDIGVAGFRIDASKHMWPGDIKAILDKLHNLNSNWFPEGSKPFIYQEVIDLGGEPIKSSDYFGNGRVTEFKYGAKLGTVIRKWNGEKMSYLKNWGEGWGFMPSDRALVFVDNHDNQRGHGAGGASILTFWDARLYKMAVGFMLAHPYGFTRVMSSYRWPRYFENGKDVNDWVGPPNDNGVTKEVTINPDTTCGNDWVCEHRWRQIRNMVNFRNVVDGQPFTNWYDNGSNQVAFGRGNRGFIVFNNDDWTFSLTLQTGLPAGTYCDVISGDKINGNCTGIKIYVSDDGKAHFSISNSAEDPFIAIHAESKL
SMILES,tested on,test,system,conditions,measurement,result
COc1ccc([C@H]2N(c3ccc(Cl)c(Cl)c3)C(=O)[C@@H]3CCCN32)c(OC)c1OC (racemic),mutant huntingtin exon 1 and calmodulin,"protein binding, inhibitor, AlphaScreen",,,IC50,2.2 µM
Cc1cc(C)nc(SC2=CS(=O)(=O)c3ccccc32)n1,Histone acetyltransferase RTT109 with Vps75,"enzyme activity, inhibitor, HTS, CPM-based, dose response",,,IC50,> 125 µM
O=C(CCn1cnc2ccccc2c1=O)Nc1ccc(S(=O)(=O)N2CCCCCC2)cc1,"Catenin beta-1, with BCL9 HD2 (CTNNB1, Homo sapiens, UniProt P35222)","BCL9 binding, inhibitor, AlphaScreen",,,IC50,5.41 µM
COc1c(O)cc2occ(-c3ccc(O)cc3)c(=O)c2c1O,serine/threonine phosphatase Stp1,"phosphatase activity, inhibitor",,,IC50,> 333 µM
Cc1cc(OC(C)C)ccc1C(=O)C(C)(C)NC(=O)c1sccc1C,"succinate dehydrogenase (Botrytis cinerea, UniProt A0A384J5E4+D2IH01+D2IH03)","enzyme activity, inhibitor, DCPIP reduction","Botrytis cinerea, mitochondrial fraction",,IC50,0.00362 µM
Cc1ccc2[nH]nc(-c3nnc(Nc4ccc(Br)cc4)s3)c2c1,thymidine phosphorylase,"enzyme activity, inhibitor, spectrophotometric",,"pH 7.5, 25 °C",IC50,17.7 ± 1.2 µM
O=C(Nc1cnccc1Cl)N1CCN(Cc2ccc3c(c2)OC(F)(F)O3)CC1,"Fatty-acid amide hydrolase 1 (Faah, Rattus norvegicus, UniProt P97612)","enzyme activity, inhibitor",rat brain membranes,15 min preincubation,IC50,0.273 µM
O=S1(=O)C=C(N2CCCC2)c2ccccc21,Histone acetyltransferase RTT109 with Vps75,"enzyme activity, inhibitor, HTS, CPM-based, dose response",,,IC50,> 125 µM
Cc1ccc2[nH]nc(-c3nnc(Nc4ccc(O)cc4)s3)c2c1,thymidine phosphorylase,"enzyme activity, inhibitor, spectrophotometric",,"pH 7.5, 25 °C",IC50,9.91 ± 0.49 µM
O=C1CCC(N2Cc3cc(NC(=O)c4ccc(F)cc4)ccc3C2=O)C(=O)N1 (stereo not drawn),"Protein cereblon, with DDB1 (CRBN, Homo sapiens, UniProt Q96SW2)","binding, competitor, fluorescence polarization",,with: Cy5-labelled lenalidomide probe,IC50,2.1 µM
Cc1ccc(C(=O)N(CCCN)[C@@H](c2oc3cc(Cl)ccc3c(=O)c2Cc2ccccc2)C(C)C)cc1,Toxoplasma gondii,parasite growth,"HFF, bradyzoite, alkaline-induced",,EC90,8.94 µM
Oc1ccc(/C=C/c2cc(O)cc(O)c2)cc1,"Alpha-amylase 1A (AMY1A, Homo sapiens, UniProt P0DUB6)","enzyme activity, inhibitor, HPAEC-PAD",,with: maltoheptaose substrate,IC50,> 100 µM
COc1c(O)cc2c(c1O)C(=O)c1c(cc(C)c(O)c1OC)C2=O,serine/threonine phosphatase Stp1,"enzyme activity, inhibitor",,with: pNPP,IC50,> 303 µM
COc1ccc(F)cc1C(=O)NCc1ccc(-c2nn([C@@H](C)C(F)(F)F)c(N)c2C(N)=O)cc1,"Tyrosine-protein kinase Tec (TEC, Homo sapiens, UniProt P42680)","binding, NanoBRET target engagement",HEK293,with: tracer,IC50,0.0705 ± 0.0203 µM
CCCCCCCCCCCCNC(=S)NCCCC[C@H](NC(=O)OCc1ccccc1)C(=O)N[C@@H](Cc1c[nH]c2ccccc12)C(=O)N[C@@H](CCNC(=N)N)C(N)=O,SIRT2,"enzyme activity, inhibitor",,,IC50,7.3 ± 0.8 µM
Brc1cccc2nsnc12,Histone acetyltransferase RTT109 with Vps75,"enzyme activity, inhibitor, HTS, CPM-based, dose response",,,IC50,> 125 µM
COc1cc(/C=C2\CCCC(C3(O)C(=O)Nc4ccc(Cl)cc43)C2=O)cc(OC)c1OC (stereo not drawn),ERK,enzyme activity,,,IC50,14 µM
COc1cc2c(Nc3ccc(Cl)c(Cl)c3F)ncnc2cc1OC[C@@H]1C[C@@H]2CN(C)C[C@@H]2C1,"Receptor-like protein kinase FERONIA (FER, Arabidopsis thaliana, UniProt Q9SCZ4)",inhibitor,,,IC50,0.08 µM
CN(C)C(=O)c1cc2cnc(Nc3ccc(-c4cccc5c(=O)cc(N6CCOCC6)oc45)cc3)nc2n1C1CCCC1,BRD4 BD2,inhibitor,,,IC50,0.693 µM
Sc1n[nH]c(-c2ccccc2)n1,Histone acetyltransferase RTT109 with Vps75,"enzyme activity, inhibitor, HTS, CPM-based, dose response",,,IC50,> 125 µM
Cc1nc(-c2cnc(NC(C)C)n(C)c2=O)ccc1Oc1ccnc(-c2cnn(C)c2)c1,"Cytochrome P450 2C8 (CYP2C8, Homo sapiens, UniProt P10632)","time-dependent inhibition, inhibitor",,30 min preincubation without NADPH,IC50,94 µM
O=C(CCl)NC(=O)NCCc1cccs1,UCHL1,"inhibitor, ubiquitin-rhodamine cleavage",,2 h preincubation,IC50,77.4 µM
Nc1[nH]cnc2nc(S)nc1-2,Histone acetyltransferase RTT109 with Vps75,"enzyme activity, inhibitor, HTS, CPM-based, dose response",,,IC50,> 125 µM
CC(=O)Nc1ccc(NC(=O)C(C#N)=Cc2cc(F)ccc2F)cc1,UCHL1,"inhibitor, ubiquitin-rhodamine cleavage",,2 h preincubation,IC50,37.7 µM
Cc1ccc(NC(=O)c2ccc(C)c(C(F)(F)F)c2)cc1C#Cc1nn(C2CCC(O)CC2)c2ncnc(N)c12 (stereo not drawn),"Platelet-derived growth factor receptor alpha (PDGFRA, Homo sapiens, UniProt P16234)","inhibitor, radiometric kinase",,with: ATP 10 µM,IC50,1.29 µM
CC[C@@H]1[C@H](F)C(=O)N[C@@H]1COc1nccc2cc(C(N)=O)c(OC)cc12,"Mitogen-activated protein kinase kinase kinase 4 (MAP3K4, Homo sapiens, UniProt Q9Y6R4)","ATP-site probe binding, ActivX profiling",THP-1 cell lysate,Lys2 site,IC50,> 5 µM
COc1ccc(-c2cc(=O)c3cccc(Nc4ncc5cc(C(=O)N(C)C)n(C6CCCC6)c5n4)c3o2)cc1,BRD4 BD1,inhibitor,,,IC50,> 10 µM
O=S1(=O)C=C(Oc2ccc(F)cc2)c2ccccc21,Histone acetyltransferase RTT109 with Vps75,"enzyme activity, inhibitor, HTS, CPM-based, dose response",,,IC50,> 125 µM
CCOCCOCCOCCNC(=S)NCCCC[C@H](NS(C)(=O)=O)C(=O)N[C@@H](C)C(=O)N[C@@H](CCCNC(=N)N)C(N)=O,SIRT2,"enzyme activity, inhibitor",,,IC50,51 ± 12 µM
CC[C@@](O)(c1cnc(C(F)(F)F)c(Cl)c1)c1c2cnn(C3CC3)c(=O)c2nn1C,"Dihydroorotate dehydrogenase (Canis lupus familiaris, UniProt A0A8I3MWX2)","enzyme activity, inhibitor, DCIP reduction",,,IC50,> 30 µM
Cc1cc(C)n(Cc2ccc(C(=O)NC3CS(=O)(=O)c4ccccc43)cc2)n1 (stereo not drawn),Histone acetyltransferase RTT109 with Vps75,"enzyme activity, inhibitor, HTS, CPM-based, dose response",,,IC50,> 125 µM
CN1CCN(c2ccc(Nc3ncc4cc(C#N)c(=O)n(C5CCCC5)c4n3)cc2)CC1,"Ephrin type-A receptor 7 (EPHA7, Homo sapiens, UniProt Q15375)",,,,IC50,7.17 µM
COc1ccc(C2=NN(C3CCCCCC3)C(=O)[C@@H]3CC=CC[C@H]23)cc1-c1ccc(C(N)=O)cc1 (relative stereo),"3',5'-cyclic-AMP phosphodiesterase 4B, isoform PDE4B1 (PDE4B, Homo sapiens, UniProt Q07343)","enzyme activity, inhibitor, scintillation proximity",,with: 0.5 µM substrate,IC50,0.158 µM
CCNCc1nc2c(N)nc3ccccc3c2n1CC(C)(C)O,Toxoplasma gondii,parasite growth,"HFF, bradyzoite, alkaline-induced",,EC50,3530 µM
Cc1cnc(-c2ccc(-c3ccc(NC(=O)Nc4c(F)cc(F)cc4F)cc3F)c3c2C(=O)NC3)[nH]1,"Tyrosine-protein kinase Lyn, isoform B (LYN, Homo sapiens, UniProt P07948)","enzyme activity, inhibitor, mobility shift",,with: ATP 1 mM,IC50,0.0169 µM
COc1ccc(-c2cc(=O)c3ccc(Nc4ncc5cc(C(=O)N(C)C)n(C6CCCC6)c5n4)cc3o2)cc1,BRD4 BD2,inhibitor,,,IC50,> 10 µM
C=CC(C)(C)c1cc(/C=C/C(=O)c2ccc(O)cc2)c(OC)cc1O,"Histone-arginine methyltransferase CARM1 (Mus musculus, UniProt Q9WVG6)","methyltransferase activity, inhibitor",,"with: PABP1 substrate, [3H]AdoMet",IC50,28.4 µM and ~30 µM
CN(c1ccccc1)c1nc(-c2ccccc2)no1,Histone acetyltransferase RTT109 with Vps75,"enzyme activity, inhibitor, HTS, CPM-based, dose response",,,IC50,> 125 µM
CN1CCN(c2cc(=O)c3ccc(Nc4ncc5cc(C(=O)N(C)C)n(C6CCCC6)c5n4)cc3o2)CC1,BRD4 BD1,inhibitor,,,IC50,0.817 µM

# Some of these lines once more:
SMILES,tested on,test,system,conditions,measurement,result
Oc1ccc(/C=C/c2cc(O)cc(O)c2)cc1,"Alpha-amylase 1A (AMY1A, Homo sapiens, UniProt P0DUB6)","enzyme activity, inhibitor, HPAEC-PAD",,with: maltoheptaose substrate,IC50,> 100 µM
COc1c(O)cc2c(c1O)C(=O)c1c(cc(C)c(O)c1OC)C2=O,serine/threonine phosphatase Stp1,"enzyme activity, inhibitor",,with: pNPP,IC50,> 303 µM
COc1ccc(F)cc1C(=O)NCc1ccc(-c2nn([C@@H](C)C(F)(F)F)c(N)c2C(N)=O)cc1,"Tyrosine-protein kinase Tec (TEC, Homo sapiens, UniProt P42680)","binding, NanoBRET target engagement",HEK293,with: tracer,IC50,0.0705 ± 0.0203 µM
